Experimental data pooled from the literature.
Protocols differ between the studies behind these lines. ± marks the error that the study gave.
PPARG ligand-binding domain: Peroxisome proliferator-activated receptor gamma, ligand-binding domain (PPARG, Homo sapiens, UniProt P37231)
Chain of UniProt P37231 (whole entry, looked up): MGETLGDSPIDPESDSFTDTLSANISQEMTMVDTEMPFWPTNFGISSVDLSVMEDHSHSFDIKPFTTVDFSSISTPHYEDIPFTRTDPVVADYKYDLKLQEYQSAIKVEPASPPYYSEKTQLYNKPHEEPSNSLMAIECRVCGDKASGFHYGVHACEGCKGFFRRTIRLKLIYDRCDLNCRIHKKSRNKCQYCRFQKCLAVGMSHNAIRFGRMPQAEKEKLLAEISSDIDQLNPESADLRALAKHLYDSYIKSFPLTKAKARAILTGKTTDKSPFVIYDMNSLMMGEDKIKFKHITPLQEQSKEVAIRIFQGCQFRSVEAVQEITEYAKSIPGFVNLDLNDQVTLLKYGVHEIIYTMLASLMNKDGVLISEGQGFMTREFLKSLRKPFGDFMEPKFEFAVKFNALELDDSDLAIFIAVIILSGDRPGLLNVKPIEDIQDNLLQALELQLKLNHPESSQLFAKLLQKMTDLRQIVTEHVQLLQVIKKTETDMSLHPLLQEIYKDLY
Rhomboid protease AarA: Rhomboid protease AarA (Providencia stuartii, UniProt P46116)
Chain of UniProt P46116 (whole entry, looked up): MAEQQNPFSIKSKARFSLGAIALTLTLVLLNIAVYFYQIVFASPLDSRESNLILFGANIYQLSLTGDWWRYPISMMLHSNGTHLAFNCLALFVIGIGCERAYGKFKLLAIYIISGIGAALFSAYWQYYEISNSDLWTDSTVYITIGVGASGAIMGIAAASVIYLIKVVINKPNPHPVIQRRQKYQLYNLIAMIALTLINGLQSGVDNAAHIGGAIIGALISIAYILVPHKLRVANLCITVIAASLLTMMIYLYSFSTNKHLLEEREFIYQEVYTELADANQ
PPARG: Peroxisome proliferator-activated receptor gamma (PPARG, Homo sapiens, UniProt P37231)
Chain of UniProt P43358 (whole entry, looked up): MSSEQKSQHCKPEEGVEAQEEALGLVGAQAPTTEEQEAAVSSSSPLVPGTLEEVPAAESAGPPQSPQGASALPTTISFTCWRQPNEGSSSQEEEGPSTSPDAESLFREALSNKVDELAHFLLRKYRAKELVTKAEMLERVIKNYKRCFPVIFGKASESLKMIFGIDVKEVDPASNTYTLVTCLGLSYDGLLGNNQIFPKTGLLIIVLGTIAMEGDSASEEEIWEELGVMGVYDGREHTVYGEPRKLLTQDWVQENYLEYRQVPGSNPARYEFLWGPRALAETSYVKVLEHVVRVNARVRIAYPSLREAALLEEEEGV
Chain of UniProt P49674 (whole entry, looked up): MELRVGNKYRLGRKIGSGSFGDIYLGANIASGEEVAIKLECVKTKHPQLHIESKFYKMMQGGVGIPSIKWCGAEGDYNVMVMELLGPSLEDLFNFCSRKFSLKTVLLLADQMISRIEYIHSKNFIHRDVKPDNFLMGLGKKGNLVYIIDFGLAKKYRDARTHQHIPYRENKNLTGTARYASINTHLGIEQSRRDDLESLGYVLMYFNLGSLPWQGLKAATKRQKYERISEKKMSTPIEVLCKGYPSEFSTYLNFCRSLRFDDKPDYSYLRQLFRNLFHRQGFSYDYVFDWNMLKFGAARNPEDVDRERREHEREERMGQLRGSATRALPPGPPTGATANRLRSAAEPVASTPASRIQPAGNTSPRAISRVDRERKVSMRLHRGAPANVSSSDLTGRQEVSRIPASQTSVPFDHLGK
Chain of UniProt Q15303 (whole entry, looked up): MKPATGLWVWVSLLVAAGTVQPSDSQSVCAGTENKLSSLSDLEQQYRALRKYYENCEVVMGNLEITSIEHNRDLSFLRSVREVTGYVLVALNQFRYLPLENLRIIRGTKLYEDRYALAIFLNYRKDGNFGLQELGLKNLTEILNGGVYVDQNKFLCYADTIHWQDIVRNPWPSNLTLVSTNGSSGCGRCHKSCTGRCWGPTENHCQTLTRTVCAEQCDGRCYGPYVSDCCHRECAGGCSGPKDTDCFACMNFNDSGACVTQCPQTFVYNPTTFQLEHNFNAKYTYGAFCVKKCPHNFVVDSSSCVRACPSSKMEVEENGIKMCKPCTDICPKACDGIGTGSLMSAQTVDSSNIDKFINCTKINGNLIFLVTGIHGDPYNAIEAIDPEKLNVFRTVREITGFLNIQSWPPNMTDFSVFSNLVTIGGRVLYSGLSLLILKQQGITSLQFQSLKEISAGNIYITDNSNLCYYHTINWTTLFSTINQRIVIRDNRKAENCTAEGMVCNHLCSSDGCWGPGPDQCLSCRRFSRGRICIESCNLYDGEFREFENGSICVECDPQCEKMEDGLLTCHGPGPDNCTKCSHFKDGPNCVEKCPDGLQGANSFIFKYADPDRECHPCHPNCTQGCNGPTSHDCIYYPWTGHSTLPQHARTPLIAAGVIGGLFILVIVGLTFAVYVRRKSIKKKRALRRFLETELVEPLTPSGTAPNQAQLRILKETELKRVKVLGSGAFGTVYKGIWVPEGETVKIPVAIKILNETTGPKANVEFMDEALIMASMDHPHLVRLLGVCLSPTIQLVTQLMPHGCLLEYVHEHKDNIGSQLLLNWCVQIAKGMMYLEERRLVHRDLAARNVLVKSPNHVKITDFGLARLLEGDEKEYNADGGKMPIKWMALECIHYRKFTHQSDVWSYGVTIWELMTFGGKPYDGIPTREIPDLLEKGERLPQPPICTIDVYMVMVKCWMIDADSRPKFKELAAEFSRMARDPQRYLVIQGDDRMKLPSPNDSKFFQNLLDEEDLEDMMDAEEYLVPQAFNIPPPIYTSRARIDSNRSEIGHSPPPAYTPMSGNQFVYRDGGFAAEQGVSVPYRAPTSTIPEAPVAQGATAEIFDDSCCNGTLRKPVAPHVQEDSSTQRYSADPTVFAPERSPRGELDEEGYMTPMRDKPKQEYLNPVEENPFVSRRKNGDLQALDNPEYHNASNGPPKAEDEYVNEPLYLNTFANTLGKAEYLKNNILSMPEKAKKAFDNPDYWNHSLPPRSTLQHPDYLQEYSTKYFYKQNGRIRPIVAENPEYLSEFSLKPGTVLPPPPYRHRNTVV
Chain of UniProt P04406 (whole entry, looked up): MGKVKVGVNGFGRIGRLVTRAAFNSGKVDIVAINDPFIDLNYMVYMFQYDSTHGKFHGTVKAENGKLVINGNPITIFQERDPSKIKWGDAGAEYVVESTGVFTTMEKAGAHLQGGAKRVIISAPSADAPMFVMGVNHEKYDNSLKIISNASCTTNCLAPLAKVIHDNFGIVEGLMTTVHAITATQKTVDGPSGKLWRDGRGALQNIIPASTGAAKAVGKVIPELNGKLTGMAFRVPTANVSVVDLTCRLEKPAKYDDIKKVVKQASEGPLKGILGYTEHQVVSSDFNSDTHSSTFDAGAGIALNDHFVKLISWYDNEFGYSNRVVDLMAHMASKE
Chain of UniProt Q13547 (whole entry, looked up): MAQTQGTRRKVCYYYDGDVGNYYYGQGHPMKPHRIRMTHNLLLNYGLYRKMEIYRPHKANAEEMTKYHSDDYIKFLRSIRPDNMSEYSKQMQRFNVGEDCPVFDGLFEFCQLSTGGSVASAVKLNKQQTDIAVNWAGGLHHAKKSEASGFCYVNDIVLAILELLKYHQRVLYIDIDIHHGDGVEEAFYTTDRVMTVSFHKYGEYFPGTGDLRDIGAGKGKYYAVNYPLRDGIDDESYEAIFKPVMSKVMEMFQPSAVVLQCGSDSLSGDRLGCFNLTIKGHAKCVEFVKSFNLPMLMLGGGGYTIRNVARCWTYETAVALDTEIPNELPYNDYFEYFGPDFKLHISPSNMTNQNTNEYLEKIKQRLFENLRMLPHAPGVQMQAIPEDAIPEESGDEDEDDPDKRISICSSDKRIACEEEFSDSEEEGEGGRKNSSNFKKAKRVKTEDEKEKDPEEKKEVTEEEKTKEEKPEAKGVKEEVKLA
Chain of UniProt P51692 (whole entry, looked up): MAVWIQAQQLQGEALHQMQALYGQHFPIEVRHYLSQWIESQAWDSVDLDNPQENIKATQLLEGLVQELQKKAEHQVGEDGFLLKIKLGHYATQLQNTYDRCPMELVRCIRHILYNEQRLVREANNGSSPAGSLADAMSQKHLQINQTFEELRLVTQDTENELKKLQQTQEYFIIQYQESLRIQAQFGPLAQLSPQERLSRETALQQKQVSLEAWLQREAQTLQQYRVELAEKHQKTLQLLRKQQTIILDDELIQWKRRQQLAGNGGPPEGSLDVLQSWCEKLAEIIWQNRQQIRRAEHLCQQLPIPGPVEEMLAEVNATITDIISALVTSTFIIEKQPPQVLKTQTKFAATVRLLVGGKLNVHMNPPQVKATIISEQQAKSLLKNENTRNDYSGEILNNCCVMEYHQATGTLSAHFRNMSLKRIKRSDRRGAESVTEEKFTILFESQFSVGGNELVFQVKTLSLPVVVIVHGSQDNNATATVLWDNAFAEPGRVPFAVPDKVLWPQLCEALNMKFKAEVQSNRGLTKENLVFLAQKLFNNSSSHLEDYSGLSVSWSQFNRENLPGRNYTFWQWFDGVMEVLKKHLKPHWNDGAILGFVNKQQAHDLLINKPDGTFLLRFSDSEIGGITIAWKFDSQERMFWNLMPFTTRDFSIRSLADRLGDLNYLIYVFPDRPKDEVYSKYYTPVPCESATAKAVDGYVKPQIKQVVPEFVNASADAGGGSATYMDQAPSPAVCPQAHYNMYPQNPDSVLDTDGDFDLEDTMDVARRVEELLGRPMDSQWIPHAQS
Chain of UniProt P49840 (whole entry, looked up): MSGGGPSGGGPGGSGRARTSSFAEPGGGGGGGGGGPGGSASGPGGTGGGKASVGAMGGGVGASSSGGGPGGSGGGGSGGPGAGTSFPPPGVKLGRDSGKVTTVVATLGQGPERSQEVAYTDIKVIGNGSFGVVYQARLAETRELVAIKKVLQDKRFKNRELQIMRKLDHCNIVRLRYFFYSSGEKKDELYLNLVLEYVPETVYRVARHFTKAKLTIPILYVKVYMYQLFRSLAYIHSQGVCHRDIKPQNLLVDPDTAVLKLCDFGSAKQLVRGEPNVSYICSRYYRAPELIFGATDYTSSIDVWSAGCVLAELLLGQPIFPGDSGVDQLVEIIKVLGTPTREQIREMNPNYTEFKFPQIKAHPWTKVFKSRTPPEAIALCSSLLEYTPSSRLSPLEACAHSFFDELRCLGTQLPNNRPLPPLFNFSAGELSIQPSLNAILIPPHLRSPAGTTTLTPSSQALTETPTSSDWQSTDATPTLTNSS

SMILES | target | read-out | action | method | cell line | together with | IC50
Cc1nc2cc(C(=O)N[C@@H](C)c3cccc(C(C)(C)C)c3)ccc2n1Cc1cccc(OC(C)(C)C(=O)O)c1 | PPARG ligand-binding domain | reporter gene | – | luciferase reporter | HEK293T, Gal4-PPARγ LBD | – | 31400 nM
Cc1ccc(S(=O)(=O)N2CC(NC(=O)Cc3ccccc3)C2=O)cc1 (stereo not shown) | Rhomboid protease AarA | enzyme activity | inhibitor | fluorescence | – | – | 66000 nM
Cc1nc2c(F)cc(-c3nc(Nc4ccc(NC(=O)CCCCC(=O)NO)cc4)ncc3F)cc2n1C(C)C | HDAC1 (Homo sapiens, UniProt Q13547) | enzyme activity | inhibitor | – | – | – | 228 nM
O=C(NCc1ccc(F)cc1)c1ccc(NC(=O)C(C(F)(F)F)C(F)(F)F)cc1 | Rhomboid protease AarA | enzyme activity | inhibitor | fluorescence | – | – | 12000 nM
Cc1nn(-c2cccc(N)c2)c(=O)c2cnc(Nc3ccc(N4CCNCC4)cc3)nc12 | CSNK1E (Homo sapiens, UniProt P49674) | – | – | SelectScreen kinase | – | – | > 10000 nM
Cc1c(Cc2cccc(O[C@H](C)C(=O)O)c2Cl)c2ccc(C(=O)N[C@@H](C)c3ccc(C(C)(C)C)cc3)cc2n1C | PPARG | ligand displacement | – | TR-FRET | – | – | 58 nM
CCN(CC)CC(=O)Nc1cccc(-n2cc(-c3ccc4ccc(-c5cn(-c6cccc(NC(=O)CN(CC)CC)c6)nn5)cc4c3)nn2)c1 | ERBB4 (Homo sapiens, UniProt Q15303) | enzyme activity | inhibitor | – | – | – | > 10000 nM
Cc1c(Cc2cccc(OC(C)(C)C(=O)O)c2)c2ccc(C(=O)NCc3cccc(C(C)(C)C)c3)cc2n1CC1CCC1 | PPARG | ligand displacement | – | TR-FRET | – | – | 0.21 nM
CC[C@H](C)[C@@H]1NC(=O)[C@H](Cc2ccc(O)cc2)NC(=O)CSC[C@@H](C(N)=O)NC(=O)[C@H](CC(N)=O)NC(=O)[C@H](Cc2c[nH]cn2)NC(=O)[C@H](Cc2ccc(O)cc2)NC(=O)[C@H](CC(=O)O)NC(=O)[C@H](Cc2ccc(F)cc2)NC(=O)[C@H](CC(C)C)NC(=O)[C@H](CCCNC(=N)N)NC1=O | Melanoma-associated antigen 4, MAGE homology domain (Homo sapiens, UniProt P43358) | binding | inhibitor | TR-FRET displacement | – | Alexa647-MTP-1 | 13.2 ± 5.5 nM
Cc1nc2cc(C(=O)N[C@@H](C)c3ccc(C(C)(C)C)cc3)ccc2n1Cc1cc(Cl)cc(O[C@H](C)C(=O)O)c1 | PPARG | ligand displacement | – | TR-FRET | – | – | 37.1 nM
O=C1CC(c2ccccc2)N1S(=O)(=O)c1cccc(Cl)c1 (stereo not shown) | Rhomboid protease AarA | enzyme activity | inhibitor | fluorescence | – | – | 20000 nM
O=C(NCC1CCOCC1)c1n[nH]cc1NC(=O)c1c(F)cccc1F | GSK3A (Homo sapiens, UniProt P49840) | target engagement in cells | – | BRET | – | – | 4.6 nM
Cc1cc(C)nc(NC(=S)N2CCN(c3ccc(C(F)(F)F)cn3)CC2)c1 | GAPDH (Homo sapiens, UniProt P04406) | enzyme activity | inhibitor | – | – | – | > 100000 nM
O=C(NCc1ccc(OP(=O)(O)O)c(OP(=O)(O)O)c1)OCC1c2ccccc2-c2ccccc21 | Signal transducer and activator of transcription 5B, SH2 (STAT5B, Homo sapiens, UniProt P51692) | ligand displacement | – | FP | – | – | 460 nM
C#CCSc1nc(Sc2nnnn2-c2ccccc2)c2nnn(Cc3ccccc3Cl)c2n1 | KDM1A (Homo sapiens, UniProt O60341) | enzyme activity | inhibitor | fluorescence | – | – | 49 nM
Cc1c(Cc2cccc(C(C)(C)C(=O)O)c2)c2ccc(C(=O)N[C@@H](C)c3ccc(C(C)(C)C)cc3)cc2n1C | PPARG ligand-binding domain | reporter gene | – | luciferase reporter | HEK293T, Gal4-PPARγ LBD | – | 6720 nM

Some of these lines once more:
SMILES | target | read-out | action | method | cell line | together with | IC50
Cc1c(Cc2cccc(O[C@H](C)C(=O)O)c2Cl)c2ccc(C(=O)N[C@@H](C)c3ccc(C(C)(C)C)cc3)cc2n1C | PPARG | ligand displacement | – | TR-FRET | – | – | 58 nM
